Assay results from different studies.
A part holds a random share of what one study measured.

Sample 1 — technique: protein binding microarray; molecule type: double-stranded DNA, one strand shown; matrix: in vitro; concentration: not given; baseline: not given; reading: higher = stronger binding; endpoint: E-score
Target: Histone acetyltransferase KAT6A, winged helix 1, GST fusion (KAT6A, Homo sapiens, UniProt Q92794, residues 1-85)
Notes: 8-mer, flanks averaged, mean of 2 arrays, mostly near background
Target sequence (chain): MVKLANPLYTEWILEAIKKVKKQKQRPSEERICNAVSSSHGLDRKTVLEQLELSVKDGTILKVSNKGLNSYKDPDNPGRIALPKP
CATGAGAG: -0.151
CAAGGGTG: -0.108
ACTTCACA: -0.246
CATGTATC: -0.0425

Single results of other studies
IRF7 S101K/S471D/S472D/S475D/S476D/S477D/S483D/S484D/S487D full length, phosphomimetic: Interferon regulatory factor 7, full length, phosphomimetic (IRF7, Homo sapiens, UniProt Q92985, residues 1-503, S101K/S471D/S472D/S475D/S476D/S477D/S483D/S484D/S487D)
UniProt Q92985, sequence (whole entry, unmodified, looked up): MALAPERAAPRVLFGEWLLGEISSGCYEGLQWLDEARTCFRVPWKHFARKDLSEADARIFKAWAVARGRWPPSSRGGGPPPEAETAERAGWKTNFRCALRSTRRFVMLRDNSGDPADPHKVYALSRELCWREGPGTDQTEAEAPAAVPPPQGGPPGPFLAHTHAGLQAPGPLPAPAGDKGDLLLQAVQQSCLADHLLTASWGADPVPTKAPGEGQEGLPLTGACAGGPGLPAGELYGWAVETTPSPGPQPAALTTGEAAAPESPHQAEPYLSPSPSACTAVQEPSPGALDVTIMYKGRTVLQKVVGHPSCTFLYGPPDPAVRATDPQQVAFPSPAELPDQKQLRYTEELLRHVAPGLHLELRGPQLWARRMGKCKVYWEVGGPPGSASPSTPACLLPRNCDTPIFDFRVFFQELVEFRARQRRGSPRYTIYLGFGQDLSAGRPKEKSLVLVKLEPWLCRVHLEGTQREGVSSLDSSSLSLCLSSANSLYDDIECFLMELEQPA
IRF7 S471D/S472D/S475D/S476D/S477D/S483D/S484D/S487D full length, phosphomimetic: Interferon regulatory factor 7, full length, phosphomimetic (IRF7, Homo sapiens, UniProt Q92985, residues 1-503, S471D/S472D/S475D/S476D/S477D/S483D/S484D/S487D)
GCCTAGCACGACGCTATCCTTTTCCTGACGTGCTAGGTCTTGATTCGCTTGACGCTGCTG
log fluorescence (IRF7 S101K/S471D/S472D/S475D/S476D/S477D/S483D/S484D/S487D full length, phosphomimetic; protein-binding microarray; double-stranded DNA, one strand shown, in vitro; 250 nM, 60-bp whole probe, with: salmon DNA 0.4 mg/ml; baseline: random background probes, higher = stronger binding): 0.661 z-score

PhoQ, residues 284 288 289 292 302 303 SLANIV
fold induction (PhoP, residues 12 14 15 18 19 HLGGL (Escherichia coli, UniProt P23836); Sort-seq, refers to: YFP reporter; E. coli; PhoQ-PhoP variant library, with: 10 µM Mg2+; baseline: high Mg2+ state, higher = stronger signaling): 1.38

GCCTAGCACGACGGTATGGGGACTGGGGACGTGCTAGTCTTGATTCGCTTGACGCTGCTG
fitted relative affinity (IRF7 S471D/S472D/S475D/S476D/S477D/S483D/S484D/S487D full length, phosphomimetic; protein-binding microarray; double-stranded DNA, one strand shown, in vitro; 2200 nM top, 60-bp whole probe, with: salmon DNA 0.4 mg/ml; baseline: random background probes, higher = stronger binding): -0.0545 z-score

CCTCGTAG
E-score (Sal-like protein 4, full length isoform B (SALL4, Homo sapiens, UniProt Q9UJQ4-2, residues 1-616); universal PBM; double-stranded DNA, one strand shown, in vitro; not given, 8-mer, flanks averaged, mean of replicates; higher = stronger binding): -0.0423

GCCTAGCACTCATTTTTTTTCTTTAAACTGTGCTAGGTCTTGATTCGCTTGACGCTGCTG
log fluorescence (IRF7 S101K/S471D/S472D/S475D/S476D/S477D/S483D/S484D/S487D full length, phosphomimetic; protein-binding microarray; double-stranded DNA, one strand shown, in vitro; 250 nM, 60-bp whole probe, with: salmon DNA 0.4 mg/ml; baseline: random background probes, higher = stronger binding): 0.95 z-score

GCCTAGCACTCATTTCTCTGCTCTTTTACTGTGCTAGTCTTGATTCGCTTGACGCTGCTG
fitted relative affinity (IRF7 S471D/S472D/S475D/S476D/S477D/S483D/S484D/S487D full length, phosphomimetic; protein-binding microarray; double-stranded DNA, one strand shown, in vitro; 2200 nM top, 60-bp whole probe, with: salmon DNA 0.4 mg/ml; baseline: random background probes, higher = stronger binding): 2.69 z-score

A few entries again (single results of other studies):
GCCTAGCACTCATTTCTCTGCTCTTTTACTGTGCTAGTCTTGATTCGCTTGACGCTGCTG
fitted relative affinity (IRF7 S471D/S472D/S475D/S476D/S477D/S483D/S484D/S487D full length, phosphomimetic; protein-binding microarray; double-stranded DNA, one strand shown, in vitro; 2200 nM top, 60-bp whole probe, with: salmon DNA 0.4 mg/ml; baseline: random background probes, higher = stronger binding): 2.69 z-score
